Measurements gathered from unrelated publications.
Each line is one published result; not all experiments were run side by side. Several values in a cell are separate wells, animals, samples, runs or records. ± marks the error that the study gave.

COc1ccc2c(c1)c(CC(=O)[Se]CC(=O)Nc1cccc(C(F)(F)F)c1)c(C)n2C(=O)c1ccc(Cl)cc1 — CC50 (NCI60 renal subpanel; cytotoxicity, inhibitor; five-dose): 8.52 µM
CC(C)C[C@H](NC(=O)[C@H](CC(=O)O)NC(=O)CNC(=O)[C@@H](N)CCCNC(=N)N)C(=O)N[C@@H](C)C(=O)N[C@H](C(=O)N[C@@H](CC(C)C)C(=O)N[C@@H](CCCNC(=N)N)C(=O)N[C@@H](CCC(N)=O)C(=O)N[C@@H](CC(C)C)C(=O)N[C@@H](C)C(=O)N[C@@H](CCC(N)=O)C(=O)N[C@@H](CCC(=O)O)C(=O)N[C@@H](CC(=O)O)C(=O)NCC(=O)N[C@H](C(=O)N[C@H](C(=O)NCC(=O)N[C@H](C(=O)N[C@@H](CCCNC(=N)N)C(=O)NCCOCCOCCOCCOCCOCCOCCOCCOCCOCCOCCOCCOCCC(=O)N[C@@H](CS)C(N)=O)C(C)C)C(C)C)C(C)C)[C@@H](C)O — selectivity ratio (PANC-1 pancreatic cancer; cell binding, phage binding, refers to: output/input phage; 10 min, 37 °C; reference: control phage): 1.4 ± 0.5
COc1ccccc1-c1ccncc1C(=O)Nc1nnc(OCc2ccc(Cl)cc2)s1 — colony survival (RPE-1 BRCA1 WT parental; 0.5 µM, run 2; reference: untreated): 78.9%
O=C(C[Se]C(=O)c1ccccc1)Nc1cccc(C(F)(F)F)c1 — mean growth percent (NCI60 prostate subpanel (PC-3, DU-145); cell growth; 10 µM, 48 h, one-dose): -62.9%
Cc1cc(Oc2nc(N3CC[C@@H](c4ccncc4)C3)ncc2F)[nH]n1 — IC50 (Panc1005; cell proliferation; pancreas cancer): 53.7 µM
CC(=O)NCSC[C@H](NC(=O)[C@@H]1CCCN1C(=O)[C@H](C)NC(=O)[C@@H](NC(=O)CNC(=O)[C@@H](NC(=O)[C@H](Cc1c[nH]c2ccccc12)NC(=O)[C@H](C)NC(=O)CNC(=O)[C@H](CO)NC(=O)[C@H](C)NC(=O)[C@@H]1CCCN1C(=O)[C@H](Cc1c[nH]c2ccccc12)NC(=O)[C@H](C)NC(=O)[C@H](C)NC(=O)[C@@H](N)Cc1ccc(O)cc1)[C@@H](C)O)[C@@H](C)O)C(=O)N[C@@H](CO)C(=O)N[C@@H](C)C(=O)NCC(=O)N[C@H](C(=O)NCCOCCOCCOCCOCCOCCOCCOCCOCCOCCOCCOCCOCCC(=O)N[C@@H](CS)C(N)=O)[C@@H](C)O — selectivity ratio (H1155 lung large cell carcinoma; cell binding, phage binding, refers to: output/input phage; 10 min, 37 °C; reference: control phage): 1.2 ± 0.44
O=C(O)c1ccc(-c2nc(-c3ccccc3Cl)c3sccn23)cc1 — CD61 fluorescence intensity (K562; megakaryocyte differentiation, flow cytometry; 0.1 mM, 72 h; reference: untreated): 1.03 fold change and 1.17 fold change
CSCC[C@H](NC(=O)[C@@H](NC(=O)[C@H](CCC(N)=O)NC(=O)[C@H](CO)NC(=O)[C@@H](N)C(C)C)[C@@H](C)O)C(=O)N[C@@H](CCCNC(=N)N)C(=O)N[C@@H](CCC(N)=O)C(=O)N[C@H](C(=O)N[C@@H](C)C(=O)N[C@H](C(=O)N1CCC[C@H]1C(=O)N[C@@H](CC(C)C)C(=O)N[C@@H](CC(C)C)C(=O)N[C@@H](Cc1c[nH]c2ccccc12)C(=O)N[C@@H](Cc1ccccc1)C(=O)N[C@@H](Cc1c[nH]c2ccccc12)C(=O)N[C@H](C(=O)NCC(=O)N[C@@H](CO)C(=O)N[C@@H](CC(C)C)C(=O)NCCOCCOCCOCCOCCOCCOCCOCCOCCOCCOCCOCCOCCC(=O)N[C@@H](CS)C(N)=O)[C@@H](C)O)C(C)C)[C@@H](C)O — selectivity ratio (H157 lung squamous carcinoma; cell binding, phage binding, refers to: output/input phage; 10 min, 37 °C; reference: control phage): 14 ± 4.6
O=C(C[Se]C(=O)c1cccs1)Nc1cccc(C(F)(F)F)c1 — mean TGI (NCI60 prostate subpanel (PC-3, DU-145); total growth inhibition, inhibitor; five-dose): 3.35 µM
CC(C)(C)C(=O)OCOP(=O)(OCOC(=O)C(C)(C)C)C1CCCN(O)C1=O (centres unmarked) — log TGI (SK-MEL-28): -5.94 log M
CC(C)[C@H](NC(=O)[C@H](CCCNC(=N)N)NC(=O)[C@@H]1CCCN1C(=O)[C@@H](NC(=O)[C@H](C)NC(=O)[C@H](Cc1ccc(O)cc1)NC(=O)[C@H](CCC(N)=O)NC(=O)[C@H](CCCCN)NC(=O)[C@H](CCCNC(=N)N)NC(=O)[C@@H]1CCCN1C(=O)[C@H](CCC(=O)O)NC(=O)[C@@H](NC(=O)[C@H](C)N)[C@@H](C)O)[C@@H](C)O)C(=O)N[C@@H](Cc1ccccc1)C(=O)N[C@@H](Cc1c[nH]c2ccccc12)C(=O)N[C@H](C(=O)N[C@@H](CC(=O)O)C(=O)N[C@@H](C)C(=O)N1CCC[C@H]1C(=O)NCC(=O)NCCOCCOCCOCCOCCOCCOCCOCCOCCOCCOCCOCCOCCC(=O)N[C@@H](CS)C(N)=O)[C@@H](C)O — selectivity ratio (H2087; phage binding; 10 min, 37 °C; reference: control phage): 1.3 ± 1.1
O=C(C[Se]C(=O)c1ccco1)Nc1cccc(C(F)(F)F)c1 — GI50 (NCI60 prostate subpanel (PC-3, DU-145); cell growth, inhibitor; five-dose): 2.58 µM
CC(C)CC(O)(CC(C)C)c1cn(C(=O)N2CCCC2)nn1 — protein level (mouse T-cells; SILAC proteomics, refers to: NIBAN; 1 nM, 6 h, unit not given; reference: DMSO): 1.1
O=C1NC2(CC2)COc2ncc(F)cc2[C@H]2COCCN2c2ccn3ncc1c3n2 — alanine aminotransferase activity (Sprague-Dawley rat, female, serum; oral, 10 mg/kg/day, 4 weeks daily, end of recovery period): 21.6 ± 6.3 U/L
